Results pooled from the literature.
Compare with care: the assays were run in different laboratories. “And” joins repeats or separate records; there may be more than shown. ± gives the spread as reported.

SMILES = CN1CCN(S(=O)(=O)c2cc([N+](=O)[O-])ccc2N(CCOS(C)(=O)=O)CCOS(C)(=O)=O)CC1; test system = NSG mice, sample CB PDX; conditions = intraperitoneal, 25 mg/kg weekly x3; measurement = event-free survival; value = > 381 days
SMILES = C[C@H](NC(=O)c1c(C(F)F)nn(C)c1Oc1cccc(C(F)(F)F)c1)c1ccc(C(=O)O)cc1; test system = human, advanced tumours; conditions = 500 mg; measurement = median progression-free survival; value = 1.3 months
SMILES = C[C@H]1O[C@@H](O[C@H]2CC[C@@]3(C)[C@@H](CC[C@]4(C)[C@@H]3C=C[C@]35OC[C@@]6(CCC(C)(C)C[C@H]63)[C@@H](O)C[C@]54C)[C@]2(C)CO)[C@H](O)[C@@H](O[C@@H]2O[C@H](CO)[C@@H](O)[C@H](O)[C@H]2O)[C@H]1O; test system = Mus musculus, chronic-plus-binge ethanol-fed, AAV8-TBG-Null vector; conditions = oral, high dose, during administration; measurement = body weight change; value = -0.5 g and -0.7 g and -1.6 g and -1.4 g and -1.3 g and 0 g
SMILES = Cl.Cn1c(=O)n(CCCCN2CCC3(CC2)OCc2ccccc23)c2ccccc21; assay = food-maintained responding; test system = Sprague-Dawley rat, male; conditions = intraperitoneal; measurement = effective dose; value = 32 mg/kg
SMILES = CS(=O)(=O)c1ccc(-c2nnc(/C=C/c3nnc(-c4ccc(C#N)cc4)o3)n2-c2ccccc2Cl)nc1; assay = RNA-seq GSEA, measured: HALLMARK_BILE_ACID_METABOLISM; test system = organoids, small intestinal, Apc Q1405X, mouse; conditions = dose not given, 3 days, wild-type organoids; how to read = reference: DMSO, direction not given; measurement = normalized enrichment score; value = 1.89
SMILES = CC(C)CCCCCCCCC[C@@H]1CC(=O)N[C@@H](CCC(=O)O)C(=O)N[C@@H](CC(C)C)C(=O)N[C@H](CC(C)C)C(=O)N[C@@H](C(C)C)C(=O)N[C@@H](CC(=O)O)C(=O)N[C@H](CC(C)C)C(=O)N[C@@H](CC(C)C)C(=O)O1; assay = calcein leakage; test system = DOPC/CHOL liposomes; conditions = concentration not given, together with: 20 wt% PEG-8000; measurement = maximum fusion; value = 59 ± 4%
SMILES = CNC(=O)CC1C(=O)N(C2CCN(C3CCC(C(C)C)CC3)CC2)c2ccccc21 (stereo not shown); test system = conscious Sprague-Dawley rat; conditions = intravenous bolus, 100 nmol/kg; measurement = urine flow rate; value = increased
SMILES = [131I-].[Na+]; test system = paediatric patients, differentiated thyroid carcinoma, intermediate risk; conditions = dose not given, retrospective; measurement = patients requiring second dose; value = 7.2%
SMILES = C[C@]1(CO)Cc2ncn(-c3ccc(C#N)c(Cl)c3)c2C(=O)O1; test system = Chinese subjects; conditions = 80 mg single dose; measurement = urinary potassium excretion 0-24 h; value = 32.4 mmol
SMILES = Cc1cn(-c2cc(NC(=O)c3ccc(C)c(Nc4nccc(-c5cccnc5)n4)c3)cc(C(F)(F)F)c2)cn1; assay = measured: NPI score; test system = human; conditions = dose not given, 6 months versus baseline, unit not given; how to read = reference: placebo; measurement = mean difference in change; value = 0
SMILES = Clc1cc2c(cc1Cl)Oc1cc(Cl)c(Cl)cc1O2; assay = RNA-Seq, measured: Alox5ap; test system = female Sprague-Dawley rat, liver; conditions = dose not given; measurement = mRNA level; value = no effect
SMILES = CC[C@H](C)C[C@H](C)CCCCCCCCC(=O)N[C@H]1C[C@@H](O)[C@@H](NCCN)NC(=O)[C@@H]2[C@@H](O)CCN2C(=O)[C@H]([C@H](O)CCN)NC(=O)[C@H]([C@H](O)[C@@H](O)c2ccc(O)cc2)NC(=O)[C@@H]2C[C@@H](O)CN2C(=O)[C@H]([C@@H](C)O)NC1=O; assay = calcein leakage; test system = DOPC/DOPG/CHOL liposomes; conditions = concentration not given, together with: 20 wt% PEG-8000; measurement = maximum fusion; value = 20 ± 4%
SMILES = CCCCC1(CCCC)CN(c2ccccc2)c2cc(SC)c(OCC(=O)N[C@@H](C(=O)NCC(=O)O)c3ccccc3)cc2S(=O)(=O)C1; assay = measured: LDL cholesterol; test system = human, serum; conditions = 2.5 mg once daily, day 1; measurement = serum LDL-C; value = 106 mg/dL
SMILES = Nc1ncnc2c1ncn2[C@@H]1O[C@H](COP(=O)(O)OS(=O)(=O)O)[C@@H](O)[C@H]1O; assay = binding, equilibrium dialysis LC-MS; conditions = 5 µM, thermostabilized A2AR-BRIL construct; how to read = reference: no-protein control, direction not given; measurement = z-scored log2 fold change; value = 0.214
SMILES = C=CCNc1c(O)cc2c(O)c1C[C@@H](C)C[C@H](OC)[C@H](O)[C@@H](C)/C=C(\C)[C@H](OC(N)=O)[C@@H](OC)/C=C\C=C(/C)C(=O)N2; assay = RECIST v1.0; test system = human soft tissue sarcoma; conditions = dose not given; measurement = overall response rate; value = 6%
SMILES = O=C(O)Cc1c[nH]cn1; assay = binding, equilibrium dialysis LC-MS; conditions = 5 µM, thermostabilized A2AR-BRIL construct; how to read = reference: no-protein control, direction not given; measurement = z-scored log2 fold change; value = 0.11
SMILES = CC[C@H](C)[C@@H]1NC(=O)[C@@H]2CCCN2C(=O)[C@H](CC(C)C)NC(=O)[C@H](CC(C)C)NC(=O)CNC(=O)[C@@H](NC(=O)[C@@H](NC(=O)[C@H](CC(=O)O)NC(=O)CNC(=O)[C@@H](NC(=O)[C@H](C)NC(=O)CNC(=O)[C@H](CCCCN)NC(=O)[C@H](CC(C)C)NC(=O)[C@H](CC(C)C)NC(=O)[C@H](CCCCN)NC(=O)CNC(=O)[C@@H](NC(=O)[C@@H](N)CC(C)C)C(C)C)C(C)C)C(C)C)CSSC[C@@H](C(=O)O)NC1=O; assay = RNA-seq, measured: H3f3a mRNA; test system = mouse traumatic brain injury, frontal cortex and hippocampus; conditions = dose not given; how to read = reference: TBI plus compound vs TBI; measurement = log2 fold change; value = -0.924
SMILES = CC(=O)c1c(C)c2cnc(Nc3ccc(C4CCN(CCS(C)(=O)=O)CC4)cn3)nc2n(C2CCCC2)c1=O; assay = RECIST v1.1; test system = HR+/HER2- advanced breast cancer patients; conditions = 100 mg twice daily, phase Ib monotherapy arm; measurement = best response stable disease; value = 93.3%
SMILES = CCC(=O)C[C@@H](O)C[C@@H](C)C[C@H](NC(=O)[C@@H]1C[C@H](C)CN1C(=O)/C=C/[C@@H](C)CC)C(=O)N[C@H](C(=O)NC(C)(C)C(=O)N[C@@H](CC(C)C)C(=O)N[C@@H](CC(C)C)C(=O)NC(C)(C)C(=O)NC(C)(C)C(=O)NCCC(=O)N[C@@H](C)CN(C)C)[C@H](O)C(C)C; test system = giant unilamellar vesicles; conditions = 1 µM; measurement = HPTS leakage; value = inactive

Excerpt of the above:
SMILES = CC[C@H](C)[C@@H]1NC(=O)[C@@H]2CCCN2C(=O)[C@H](CC(C)C)NC(=O)[C@H](CC(C)C)NC(=O)CNC(=O)[C@@H](NC(=O)[C@@H](NC(=O)[C@H](CC(=O)O)NC(=O)CNC(=O)[C@@H](NC(=O)[C@H](C)NC(=O)CNC(=O)[C@H](CCCCN)NC(=O)[C@H](CC(C)C)NC(=O)[C@H](CC(C)C)NC(=O)[C@H](CCCCN)NC(=O)CNC(=O)[C@@H](NC(=O)[C@@H](N)CC(C)C)C(C)C)C(C)C)C(C)C)CSSC[C@@H](C(=O)O)NC1=O; assay = RNA-seq, measured: H3f3a mRNA; test system = mouse traumatic brain injury, frontal cortex and hippocampus; conditions = dose not given; how to read = reference: TBI plus compound vs TBI; measurement = log2 fold change; value = -0.924
